Measurements gathered from unrelated publications.
Numbered parts are unrelated; each lists some results of a single study.
Sequence of UniProt P42336 (whole entry, unmodified, looked up): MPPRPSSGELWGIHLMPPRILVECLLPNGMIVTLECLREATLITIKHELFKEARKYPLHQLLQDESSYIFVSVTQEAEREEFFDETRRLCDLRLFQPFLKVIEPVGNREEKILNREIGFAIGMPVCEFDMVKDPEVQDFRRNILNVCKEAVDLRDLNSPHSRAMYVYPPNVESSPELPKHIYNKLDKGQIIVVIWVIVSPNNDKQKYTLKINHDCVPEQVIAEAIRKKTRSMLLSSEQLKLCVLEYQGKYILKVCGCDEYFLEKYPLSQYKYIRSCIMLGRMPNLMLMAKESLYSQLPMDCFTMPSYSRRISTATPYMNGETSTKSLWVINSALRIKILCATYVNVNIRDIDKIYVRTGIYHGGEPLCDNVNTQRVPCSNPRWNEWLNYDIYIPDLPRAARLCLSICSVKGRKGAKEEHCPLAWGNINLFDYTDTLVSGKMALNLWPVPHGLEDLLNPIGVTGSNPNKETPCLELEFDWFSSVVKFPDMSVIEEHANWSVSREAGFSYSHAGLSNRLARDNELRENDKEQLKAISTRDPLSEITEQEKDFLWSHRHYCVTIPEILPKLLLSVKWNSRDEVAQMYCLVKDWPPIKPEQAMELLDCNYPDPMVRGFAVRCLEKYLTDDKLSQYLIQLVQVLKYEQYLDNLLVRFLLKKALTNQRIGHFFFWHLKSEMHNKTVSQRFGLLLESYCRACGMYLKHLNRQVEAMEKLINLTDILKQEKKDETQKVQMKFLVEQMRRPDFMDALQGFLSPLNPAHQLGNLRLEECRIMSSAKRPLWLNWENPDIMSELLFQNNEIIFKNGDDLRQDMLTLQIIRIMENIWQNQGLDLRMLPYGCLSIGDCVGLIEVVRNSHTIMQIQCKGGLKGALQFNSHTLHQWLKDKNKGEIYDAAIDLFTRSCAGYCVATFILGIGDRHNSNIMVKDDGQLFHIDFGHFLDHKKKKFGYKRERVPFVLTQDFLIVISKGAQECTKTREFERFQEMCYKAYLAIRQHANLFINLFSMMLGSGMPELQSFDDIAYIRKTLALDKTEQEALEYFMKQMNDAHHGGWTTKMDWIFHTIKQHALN
Sequence of UniProt Q9BRS2 (whole entry, looked up): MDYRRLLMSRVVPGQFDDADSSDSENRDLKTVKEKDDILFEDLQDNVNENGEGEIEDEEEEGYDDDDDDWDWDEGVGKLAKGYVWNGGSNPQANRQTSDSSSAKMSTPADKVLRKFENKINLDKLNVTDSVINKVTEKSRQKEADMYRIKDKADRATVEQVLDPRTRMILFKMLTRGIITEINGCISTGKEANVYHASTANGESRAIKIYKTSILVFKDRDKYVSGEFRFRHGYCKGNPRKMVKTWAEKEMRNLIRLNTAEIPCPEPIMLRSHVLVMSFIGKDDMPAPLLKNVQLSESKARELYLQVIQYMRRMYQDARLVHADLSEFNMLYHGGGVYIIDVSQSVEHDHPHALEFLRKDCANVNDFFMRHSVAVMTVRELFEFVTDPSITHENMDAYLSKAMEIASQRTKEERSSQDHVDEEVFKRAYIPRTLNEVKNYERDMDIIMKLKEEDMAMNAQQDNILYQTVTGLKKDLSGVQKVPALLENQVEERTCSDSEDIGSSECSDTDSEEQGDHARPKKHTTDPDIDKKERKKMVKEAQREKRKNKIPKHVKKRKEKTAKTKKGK
Sequence of UniProt Q9Y616 (whole entry, looked up): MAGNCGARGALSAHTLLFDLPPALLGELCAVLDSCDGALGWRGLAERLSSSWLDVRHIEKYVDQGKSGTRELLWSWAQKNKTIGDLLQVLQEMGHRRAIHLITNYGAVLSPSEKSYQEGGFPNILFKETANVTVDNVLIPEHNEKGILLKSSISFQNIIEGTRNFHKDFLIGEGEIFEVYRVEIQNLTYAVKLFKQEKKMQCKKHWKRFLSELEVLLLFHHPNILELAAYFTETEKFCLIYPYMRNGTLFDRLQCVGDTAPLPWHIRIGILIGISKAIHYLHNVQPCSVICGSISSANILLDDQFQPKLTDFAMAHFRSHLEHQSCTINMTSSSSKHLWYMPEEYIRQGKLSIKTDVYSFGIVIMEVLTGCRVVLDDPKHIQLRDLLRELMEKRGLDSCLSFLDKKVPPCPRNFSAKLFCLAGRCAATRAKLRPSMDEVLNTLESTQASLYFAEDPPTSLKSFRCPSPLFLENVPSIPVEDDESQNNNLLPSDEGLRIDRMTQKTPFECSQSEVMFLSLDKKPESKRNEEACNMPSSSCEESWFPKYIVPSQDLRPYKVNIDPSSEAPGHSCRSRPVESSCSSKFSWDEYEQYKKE
Sequence of UniProt Q13705 (whole entry, looked up): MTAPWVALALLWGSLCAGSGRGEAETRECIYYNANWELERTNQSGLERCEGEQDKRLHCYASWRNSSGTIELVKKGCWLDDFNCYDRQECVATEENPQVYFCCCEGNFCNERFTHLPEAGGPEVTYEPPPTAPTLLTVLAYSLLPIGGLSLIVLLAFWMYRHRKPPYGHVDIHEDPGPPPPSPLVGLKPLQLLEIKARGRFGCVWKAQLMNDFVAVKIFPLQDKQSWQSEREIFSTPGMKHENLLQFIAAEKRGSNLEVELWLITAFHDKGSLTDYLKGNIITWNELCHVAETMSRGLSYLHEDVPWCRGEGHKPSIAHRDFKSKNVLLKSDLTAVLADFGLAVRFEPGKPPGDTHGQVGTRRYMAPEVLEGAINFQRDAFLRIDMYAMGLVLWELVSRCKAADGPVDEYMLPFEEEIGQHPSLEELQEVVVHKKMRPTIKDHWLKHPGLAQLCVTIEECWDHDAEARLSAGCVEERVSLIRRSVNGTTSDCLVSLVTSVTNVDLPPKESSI
Sequence of UniProt Q6P2M8 (whole entry, looked up): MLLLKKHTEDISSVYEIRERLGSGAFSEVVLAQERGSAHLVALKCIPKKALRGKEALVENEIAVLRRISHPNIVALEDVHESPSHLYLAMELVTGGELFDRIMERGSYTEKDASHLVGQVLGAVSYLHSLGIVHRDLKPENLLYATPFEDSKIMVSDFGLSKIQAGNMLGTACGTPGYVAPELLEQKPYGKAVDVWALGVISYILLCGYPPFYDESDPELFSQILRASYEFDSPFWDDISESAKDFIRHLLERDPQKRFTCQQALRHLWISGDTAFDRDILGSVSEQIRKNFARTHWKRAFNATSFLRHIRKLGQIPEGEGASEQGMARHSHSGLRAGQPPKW
Sequence of UniProt P49840 (whole entry, looked up): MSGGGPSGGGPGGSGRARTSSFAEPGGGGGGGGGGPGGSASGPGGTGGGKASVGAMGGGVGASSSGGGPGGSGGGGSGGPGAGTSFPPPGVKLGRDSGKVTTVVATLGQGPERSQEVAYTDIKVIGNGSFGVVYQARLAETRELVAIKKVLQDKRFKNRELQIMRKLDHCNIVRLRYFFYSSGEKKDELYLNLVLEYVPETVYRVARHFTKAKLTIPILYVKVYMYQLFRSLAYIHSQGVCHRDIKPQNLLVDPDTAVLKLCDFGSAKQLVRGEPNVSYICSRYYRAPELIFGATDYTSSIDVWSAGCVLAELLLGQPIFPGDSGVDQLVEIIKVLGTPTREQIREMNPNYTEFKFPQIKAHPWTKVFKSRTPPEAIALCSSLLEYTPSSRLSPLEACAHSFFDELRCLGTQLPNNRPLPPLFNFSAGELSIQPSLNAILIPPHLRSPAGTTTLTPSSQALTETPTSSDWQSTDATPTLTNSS
Sequence of UniProt Q9NQU5 (whole entry, looked up): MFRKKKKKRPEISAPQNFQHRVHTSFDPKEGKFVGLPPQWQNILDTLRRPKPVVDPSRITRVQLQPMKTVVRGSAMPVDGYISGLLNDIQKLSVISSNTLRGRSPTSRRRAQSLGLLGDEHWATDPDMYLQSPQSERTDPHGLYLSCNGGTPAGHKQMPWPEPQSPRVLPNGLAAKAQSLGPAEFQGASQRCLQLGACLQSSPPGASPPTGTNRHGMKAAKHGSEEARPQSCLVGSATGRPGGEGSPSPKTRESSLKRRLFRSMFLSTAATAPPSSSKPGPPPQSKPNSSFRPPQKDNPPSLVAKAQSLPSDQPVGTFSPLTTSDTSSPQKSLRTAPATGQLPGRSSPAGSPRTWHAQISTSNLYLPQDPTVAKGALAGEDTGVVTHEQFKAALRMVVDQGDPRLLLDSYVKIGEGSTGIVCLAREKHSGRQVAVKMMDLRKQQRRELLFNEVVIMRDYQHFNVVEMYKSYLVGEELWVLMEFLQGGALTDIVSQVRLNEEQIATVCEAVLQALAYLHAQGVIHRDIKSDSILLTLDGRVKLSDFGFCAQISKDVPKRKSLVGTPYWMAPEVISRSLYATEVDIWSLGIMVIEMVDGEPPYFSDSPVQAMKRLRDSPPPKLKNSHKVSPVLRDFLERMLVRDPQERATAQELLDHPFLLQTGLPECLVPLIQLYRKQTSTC
Sequence of UniProt Q8NFD2 (whole entry, looked up): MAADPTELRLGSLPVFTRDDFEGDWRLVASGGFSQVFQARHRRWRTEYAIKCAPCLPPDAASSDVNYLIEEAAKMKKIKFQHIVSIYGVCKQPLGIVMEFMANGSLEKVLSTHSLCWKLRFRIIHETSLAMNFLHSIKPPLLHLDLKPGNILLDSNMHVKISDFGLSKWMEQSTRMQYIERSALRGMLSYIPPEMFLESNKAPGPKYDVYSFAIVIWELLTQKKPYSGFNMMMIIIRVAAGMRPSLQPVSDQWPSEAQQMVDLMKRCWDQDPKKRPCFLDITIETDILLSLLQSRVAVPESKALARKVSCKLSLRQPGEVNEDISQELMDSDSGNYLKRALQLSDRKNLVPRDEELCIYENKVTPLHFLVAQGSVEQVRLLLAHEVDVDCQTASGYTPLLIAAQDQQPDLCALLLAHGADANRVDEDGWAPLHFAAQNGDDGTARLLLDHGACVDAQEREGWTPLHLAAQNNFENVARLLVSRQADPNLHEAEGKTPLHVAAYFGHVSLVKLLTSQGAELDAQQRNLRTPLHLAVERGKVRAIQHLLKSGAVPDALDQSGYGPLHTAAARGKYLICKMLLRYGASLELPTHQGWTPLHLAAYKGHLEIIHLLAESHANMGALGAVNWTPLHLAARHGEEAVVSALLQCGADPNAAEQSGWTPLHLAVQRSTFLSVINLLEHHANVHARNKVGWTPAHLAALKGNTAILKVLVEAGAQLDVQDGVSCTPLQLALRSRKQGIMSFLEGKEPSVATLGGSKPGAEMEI

Study 1
Target: Tyrosine-protein kinase SYK (SYK, Homo sapiens, UniProt P43405)
Read-out: enzyme activity
Mode: inhibitor
Concentration: 0.5 µM
Reference: control
Quantity: remaining activity
Structure (SMILES) = O=C(CCCc1ccc(-c2ccccc2F)cc1)Nc1ccc(O)cc1; result = 101%
Structure (SMILES) = C#Cc1cccc(Nc2ncnc3cc(OCCOC)c(OCCOC)cc23)c1; result = 108%
Structure (SMILES) = CN(C)c1ccc(C=C2C(=O)Nc3ccccc32)cc1; result = 90.4%
Structure (SMILES) = COc1ccc(C(=O)Nc2sc3c(c2C(N)=O)CCCC3)cc1OC; result = 91.2%
Structure (SMILES) = Cc1nc(-c2ccccc2)c(-c2ccncc2)o1; result = 99.1%
Structure (SMILES) = O=C(O)c1ccc2c3c1cccc3c(=O)n1c3ccccc3nc21; result = 96%
Structure (SMILES) = COc1ccc(OC)c2c(=S)c3ccccc3[nH]c12; result = 100%
Structure (SMILES) = COc1cc2nccc(Oc3ccc(NC(=S)NC(=O)c4ccccc4C)cc3)c2cc1OC; result = 95.5%
Structure (SMILES) = Cn1c2ccccc2c2c3c(c4c5ccccc5n(CCC#N)c4c21)CNC3=O; result = 14.6%
Structure (SMILES) = O=C(Nc1cccc(Nc2cc(Nc3cccc(C(F)(F)F)c3)ncn2)c1)C1CC1; result = 94.9%
Structure (SMILES) = CNC(=O)c1cc(Oc2ccc(NC(=O)Nc3ccc(Cl)c(C(F)(F)F)c3)cc2)ccn1; result = 101%
Structure (SMILES) = O=C1NC(=O)C(c2cn(CCCn3ccnc3)c3ccccc23)=C1Nc1ccccc1; result = 99.9%
Structure (SMILES) = N#CC(C#N)=C(N)/C(C#N)=C/c1ccc(O)cc1; result = 101%
Structure (SMILES) = Cn1sc(=O)n(Cc2ccccc2)c1=O; result = 92.2%
Structure (SMILES) = Nc1[nH]nc2nc3ccccc3nc12; result = 100%
Structure (SMILES) = COc1cc2ncnc(Nc3ccc(F)c(Cl)c3)c2cc1OCCCN1CCOCC1; result = 104%

Study 2
Compound: C[C@H]1CC[C@H](n2c3cnccc3c3cnc(Nc4ccc5c(n4)CCN(C(=O)CO)C5)nc32)CC1
Read-out: cell-free assay
Concentration: 1 µM
Quantity: remaining signal
target = EGFR (Homo sapiens, UniProt P00533, del752-759); result = 84%
target = PAK6 (Homo sapiens, UniProt Q9NQU5); result = 70%
target = RIOK1 (Homo sapiens, UniProt Q9BRS2); result = 56%
target = PIK3CA (Homo sapiens, UniProt P42336, Q546K); result = 100%
target = IRAK3 (Homo sapiens, UniProt Q9Y616); result = 12%

Study 3
SMILES: COc1cccc(CNC(=O)c2nc3scc(COCc4ccc(C(=O)O)cc4)c3c(=O)[nH]2)c1
Read-out: cell-free assay
Method: competition with immobilised ligand
Concentration: 1 µM
Quantity: remaining binding
target = ANKK1 (Homo sapiens, UniProt Q8NFD2); result = 70.9%
target = GSK3A (Homo sapiens, UniProt P49840); result = 100%
target = ACVR2B (Homo sapiens, UniProt Q13705); result = 100%
target = PNCK (Homo sapiens, UniProt Q6P2M8); result = 70.7%
target = EGFR (Homo sapiens, UniProt P00533, G719C); result = 91.4%
target = PIK3CA (Homo sapiens, UniProt P42336, E545K); result = 86.3%

Study 4
Cell line: A-375
Concentration: 100 µM
Time: 18 h
Quantity: viability
SMILES = Cc1c(OCC(F)(F)F)ccnc1C[S+]([O-])c1nc2ccccc2[nH]1 (centres unmarked); result = 76.4%
SMILES = C[C@]12C=CC(=O)C=C1CC[C@@H]1[C@@H]2[C@@H](O)C[C@@]2(C)[C@H]1CC[C@]2(O)C(=O)CO; result = 112%
SMILES = CCCCCOC(=O)Nc1nc(=O)n([C@@H]2O[C@H](C)[C@@H](O)[C@H]2O)cc1F; result = 112%
SMILES = O=C1CC[C@@H](C(=O)N2CSC[C@H]2C(=O)O)N1; result = 88.1%
SMILES = CO[C@H]1/C=C/O[C@@]2(C)Oc3c(C)c(O)c4c(O)c(c5c(nc6cc(C)ccn65)c4c3C2=O)NC(=O)/C(C)=C\C=C\[C@H](C)[C@H](O)[C@@H](C)[C@@H](O)[C@@H](C)[C@H](OC(C)=O)[C@@H]1C; result = 31.5%
